Measured values of several laboratories.
Each numbered part is a random draw from the data of one study; scales do not carry over between parts.
Chain of UniProt P61075 (whole entry, looked up): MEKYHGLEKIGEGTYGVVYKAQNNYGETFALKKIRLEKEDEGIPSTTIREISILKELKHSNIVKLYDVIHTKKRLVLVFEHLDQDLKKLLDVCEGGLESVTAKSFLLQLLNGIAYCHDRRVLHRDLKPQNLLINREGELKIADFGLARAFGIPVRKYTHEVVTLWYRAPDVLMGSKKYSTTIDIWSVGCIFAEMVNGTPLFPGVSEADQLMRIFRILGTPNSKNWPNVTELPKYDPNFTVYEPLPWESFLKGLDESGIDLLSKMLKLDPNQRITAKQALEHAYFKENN
Chain of UniProt P09769 (whole entry, looked up): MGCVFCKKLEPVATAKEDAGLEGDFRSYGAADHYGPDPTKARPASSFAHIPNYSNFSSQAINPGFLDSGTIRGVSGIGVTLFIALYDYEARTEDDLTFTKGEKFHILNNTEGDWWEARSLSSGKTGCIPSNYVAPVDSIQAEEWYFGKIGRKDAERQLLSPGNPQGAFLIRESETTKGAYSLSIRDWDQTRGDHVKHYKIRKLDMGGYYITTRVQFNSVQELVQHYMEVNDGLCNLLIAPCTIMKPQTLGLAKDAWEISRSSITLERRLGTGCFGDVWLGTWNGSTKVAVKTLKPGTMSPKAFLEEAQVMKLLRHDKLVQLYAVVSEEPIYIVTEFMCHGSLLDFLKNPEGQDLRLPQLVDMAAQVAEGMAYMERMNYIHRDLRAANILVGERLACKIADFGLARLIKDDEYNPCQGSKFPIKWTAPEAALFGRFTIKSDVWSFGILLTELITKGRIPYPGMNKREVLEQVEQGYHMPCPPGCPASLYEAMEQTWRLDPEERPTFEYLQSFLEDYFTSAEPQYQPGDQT
Chain of UniProt Q5VT25 (whole entry, looked up): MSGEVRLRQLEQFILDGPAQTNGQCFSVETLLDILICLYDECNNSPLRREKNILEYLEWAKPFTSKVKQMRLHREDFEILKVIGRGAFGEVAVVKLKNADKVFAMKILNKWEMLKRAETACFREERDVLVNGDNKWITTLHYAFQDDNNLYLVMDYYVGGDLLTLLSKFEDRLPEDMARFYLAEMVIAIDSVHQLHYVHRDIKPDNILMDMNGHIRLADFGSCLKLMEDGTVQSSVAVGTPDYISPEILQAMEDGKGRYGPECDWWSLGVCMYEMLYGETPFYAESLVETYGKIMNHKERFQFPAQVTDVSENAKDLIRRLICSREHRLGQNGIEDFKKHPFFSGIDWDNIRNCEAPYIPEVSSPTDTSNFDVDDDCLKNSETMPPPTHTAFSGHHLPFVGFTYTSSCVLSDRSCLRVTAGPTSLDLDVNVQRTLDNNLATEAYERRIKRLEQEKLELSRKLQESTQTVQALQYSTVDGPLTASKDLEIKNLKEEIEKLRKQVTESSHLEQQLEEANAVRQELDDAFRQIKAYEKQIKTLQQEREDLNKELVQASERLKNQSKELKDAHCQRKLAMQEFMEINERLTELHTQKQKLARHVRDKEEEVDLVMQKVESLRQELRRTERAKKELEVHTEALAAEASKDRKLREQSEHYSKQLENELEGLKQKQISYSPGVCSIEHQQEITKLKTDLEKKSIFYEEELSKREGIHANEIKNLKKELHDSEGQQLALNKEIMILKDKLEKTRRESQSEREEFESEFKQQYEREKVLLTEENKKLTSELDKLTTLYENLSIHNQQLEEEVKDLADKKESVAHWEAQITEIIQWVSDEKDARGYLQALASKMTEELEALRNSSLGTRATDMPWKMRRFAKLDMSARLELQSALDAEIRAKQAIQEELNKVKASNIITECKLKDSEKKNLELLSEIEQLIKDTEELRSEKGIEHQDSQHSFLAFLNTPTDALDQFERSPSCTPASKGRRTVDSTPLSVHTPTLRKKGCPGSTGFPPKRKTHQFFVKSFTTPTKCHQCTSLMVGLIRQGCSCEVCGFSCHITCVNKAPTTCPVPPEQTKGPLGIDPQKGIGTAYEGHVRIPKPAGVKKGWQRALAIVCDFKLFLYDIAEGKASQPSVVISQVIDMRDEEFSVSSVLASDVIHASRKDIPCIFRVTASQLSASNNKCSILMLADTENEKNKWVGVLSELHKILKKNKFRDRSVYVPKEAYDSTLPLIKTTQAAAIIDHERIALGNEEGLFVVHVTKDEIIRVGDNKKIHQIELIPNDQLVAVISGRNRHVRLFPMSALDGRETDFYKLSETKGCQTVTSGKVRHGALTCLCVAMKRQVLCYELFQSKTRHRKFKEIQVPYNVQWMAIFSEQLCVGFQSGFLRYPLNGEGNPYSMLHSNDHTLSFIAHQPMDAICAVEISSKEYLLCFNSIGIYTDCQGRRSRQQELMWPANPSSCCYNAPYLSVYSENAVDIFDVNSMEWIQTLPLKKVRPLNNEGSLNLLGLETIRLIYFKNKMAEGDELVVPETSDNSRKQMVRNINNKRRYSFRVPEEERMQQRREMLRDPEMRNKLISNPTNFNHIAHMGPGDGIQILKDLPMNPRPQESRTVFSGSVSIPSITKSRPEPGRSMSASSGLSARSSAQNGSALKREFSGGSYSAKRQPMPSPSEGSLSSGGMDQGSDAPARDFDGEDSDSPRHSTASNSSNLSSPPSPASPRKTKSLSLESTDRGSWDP
Chain of UniProt Q92630 (whole entry, looked up): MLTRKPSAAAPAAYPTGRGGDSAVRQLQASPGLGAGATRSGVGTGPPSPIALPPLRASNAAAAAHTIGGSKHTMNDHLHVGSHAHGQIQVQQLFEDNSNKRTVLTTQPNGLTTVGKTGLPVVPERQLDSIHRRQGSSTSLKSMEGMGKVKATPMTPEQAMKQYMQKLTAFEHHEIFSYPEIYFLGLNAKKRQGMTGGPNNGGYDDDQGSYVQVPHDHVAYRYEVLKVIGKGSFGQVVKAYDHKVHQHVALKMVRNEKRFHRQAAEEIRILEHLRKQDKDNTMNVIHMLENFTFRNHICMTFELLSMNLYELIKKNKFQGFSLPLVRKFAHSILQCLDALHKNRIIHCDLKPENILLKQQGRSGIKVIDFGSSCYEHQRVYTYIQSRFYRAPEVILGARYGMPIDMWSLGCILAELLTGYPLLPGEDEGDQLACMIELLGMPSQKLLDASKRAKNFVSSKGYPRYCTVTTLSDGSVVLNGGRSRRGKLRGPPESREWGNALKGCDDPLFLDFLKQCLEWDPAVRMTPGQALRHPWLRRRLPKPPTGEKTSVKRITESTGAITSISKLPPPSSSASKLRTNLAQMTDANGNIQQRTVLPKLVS
Chain of UniProt Q9UBE8 (whole entry, looked up): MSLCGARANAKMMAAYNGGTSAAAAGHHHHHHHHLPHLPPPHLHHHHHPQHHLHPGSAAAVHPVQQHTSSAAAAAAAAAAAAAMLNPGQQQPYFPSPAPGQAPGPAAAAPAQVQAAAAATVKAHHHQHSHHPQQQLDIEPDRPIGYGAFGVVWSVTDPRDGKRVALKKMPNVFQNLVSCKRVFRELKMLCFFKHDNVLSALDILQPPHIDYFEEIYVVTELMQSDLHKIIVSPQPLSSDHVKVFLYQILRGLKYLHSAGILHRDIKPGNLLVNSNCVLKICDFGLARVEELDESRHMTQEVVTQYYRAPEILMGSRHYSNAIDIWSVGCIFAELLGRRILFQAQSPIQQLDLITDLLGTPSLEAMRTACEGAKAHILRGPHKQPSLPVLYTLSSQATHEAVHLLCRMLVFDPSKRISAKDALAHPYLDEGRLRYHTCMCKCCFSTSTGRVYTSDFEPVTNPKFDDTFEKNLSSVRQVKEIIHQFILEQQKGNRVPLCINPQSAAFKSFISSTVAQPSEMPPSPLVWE
Chain of UniProt P9WI81 (whole entry, looked up): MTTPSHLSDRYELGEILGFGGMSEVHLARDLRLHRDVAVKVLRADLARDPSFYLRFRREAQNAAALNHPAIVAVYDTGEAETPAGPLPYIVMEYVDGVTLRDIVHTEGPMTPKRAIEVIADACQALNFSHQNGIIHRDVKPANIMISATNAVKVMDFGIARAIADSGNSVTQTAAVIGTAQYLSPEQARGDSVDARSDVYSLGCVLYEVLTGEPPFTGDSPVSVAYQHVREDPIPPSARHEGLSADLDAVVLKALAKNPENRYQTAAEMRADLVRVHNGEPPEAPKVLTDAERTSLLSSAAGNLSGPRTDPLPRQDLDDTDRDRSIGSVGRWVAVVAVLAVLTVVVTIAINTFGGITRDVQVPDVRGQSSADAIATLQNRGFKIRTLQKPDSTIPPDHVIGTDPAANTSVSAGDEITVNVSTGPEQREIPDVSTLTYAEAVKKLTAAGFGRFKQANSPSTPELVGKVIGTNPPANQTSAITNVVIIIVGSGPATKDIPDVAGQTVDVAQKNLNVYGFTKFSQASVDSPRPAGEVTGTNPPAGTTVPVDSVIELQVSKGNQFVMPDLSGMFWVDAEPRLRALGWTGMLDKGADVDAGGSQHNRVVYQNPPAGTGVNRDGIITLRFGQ
Chain of UniProt Q96KB5 (whole entry, looked up): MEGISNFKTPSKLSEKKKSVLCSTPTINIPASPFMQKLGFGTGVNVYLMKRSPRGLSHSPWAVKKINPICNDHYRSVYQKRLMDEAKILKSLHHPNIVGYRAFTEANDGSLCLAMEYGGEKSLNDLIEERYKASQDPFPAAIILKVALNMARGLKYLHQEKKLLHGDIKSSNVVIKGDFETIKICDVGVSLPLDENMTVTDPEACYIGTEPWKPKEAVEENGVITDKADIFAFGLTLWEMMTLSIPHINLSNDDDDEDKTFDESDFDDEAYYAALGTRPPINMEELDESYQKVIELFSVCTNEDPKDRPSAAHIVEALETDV

Study 1
Target: Eukaryotic initiation factor 4A-I (EIF4A1, Homo sapiens, UniProt P60842)
Chain of UniProt P60842 (whole entry, looked up): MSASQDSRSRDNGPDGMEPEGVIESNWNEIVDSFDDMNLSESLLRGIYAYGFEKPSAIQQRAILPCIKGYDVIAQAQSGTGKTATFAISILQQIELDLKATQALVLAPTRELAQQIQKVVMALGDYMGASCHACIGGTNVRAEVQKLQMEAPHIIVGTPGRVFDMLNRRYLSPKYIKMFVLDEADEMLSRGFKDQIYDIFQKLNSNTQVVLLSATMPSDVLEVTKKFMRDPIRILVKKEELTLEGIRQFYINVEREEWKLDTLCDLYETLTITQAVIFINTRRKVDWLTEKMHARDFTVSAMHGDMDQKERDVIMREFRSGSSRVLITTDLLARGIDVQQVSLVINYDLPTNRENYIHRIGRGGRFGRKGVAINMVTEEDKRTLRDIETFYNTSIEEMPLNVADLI
Observed: RNA clamping
Method: fluorescence polarization
Concentration: concentration not given
Setting: mean of two replicates
Together with: FAM-labelled poly r(AG)8 RNA
Compound | fluorescence polarization change
COC(=O)[C@@H]1[C@@H](c2ccccc2)[C@]2(c3ccc(OC)cc3)Oc3cc(OC)cc(OC)c3[C@@]1(O)[C@H]2O | 6.5 mP
COc1ccc([C@@]23Oc4cc(OC)cc(OC)c4[C@]2(O)C(=O)C[C@H]3c2ccccc2)cc1 | 47.3 mP
COc1ccc([C@@]23Oc4cc(OC)cc(OC)c4[C@]2(O)c2nc(-c4ccc(OCc5ccccc5)cc4)[nH]c(=O)c2[C@H]3c2ccccc2)cc1 | 5.5 mP
COC(=O)[C@@H]1[C@@H](c2ccccc2)[C@@]2(c3ccc(Br)cc3)C(=O)[C@]1(O)c1c(OC)cc(OC)cc1N2C | 3 mP
COC(=O)[C@@H]1[C@@H](c2ccccc2)[C@]2(c3ccc(Br)cc3)Oc3cc(OC)cc(OC)c3[C@@]1(O)C2(O)O | 4.8 mP
COc1cc(F)cc2c1[C@]1(O)[C@H](O)[C@H](/C(N)=N/O)[C@@H](c3ccccc3)[C@]1(c1ccc(Br)cc1)O2 | 60.1 mP

Study 2
Target: Bromodomain-containing protein 4, BD1 (BRD4, Homo sapiens, UniProt O60885)
Observed: acetyl-histone H4 peptide binding
Method: AlphaScreen displacement
Concentration: 50 µM
Compound | inhibition [%]
CCOc1ccc(NC=C2C(=O)NC(=O)N(c3ccccc3)C2=O)cc1 | 15.2
C=CCN1C(=O)C(=Cc2ccc(OCC(=O)O)cc2)C(=O)N=C1O | 8.9
COc1ccc(NC=C2C(=O)NC(=O)N(C)C2=O)cc1 | 19.1
COC(=O)c1ccc(NC=C2C(=O)NC(=O)N(C)C2=O)cc1 | 5.9
COC(=O)C1(O)CC2OC1(C)n1c3ccccc3c3c4c(c5c6ccccc6n2c5c31)C(=O)NC4 (stereo not shown) | 30.8
CCn1cnc2c(Nc3cccc(Cl)c3)nc(N[C@@H]3CCCC[C@@H]3N)nc21 | 45.8

Study 3
Compound: CC(C)(C)c1cc(C=C(C#N)C#N)cc(Br)c1O
Observed: enzyme activity
Mode: inhibitor
Concentration: 0.5 µM
target | relative to | remaining activity
DYRK2 (Homo sapiens, UniProt Q92630) | – | 104%
NLK (Homo sapiens, UniProt Q9UBE8) | control | 93.6%
PBK (Homo sapiens, UniProt Q96KB5) | – | 102%
FGR (Homo sapiens, UniProt P09769) | control | 75.4%
CDC42BPA (Homo sapiens, UniProt Q5VT25) | control | 101%

Single results of other studies
Observed: cell-free assay
Method: competition with immobilised ligand
Concentration: 1 µM
Compound | target | remaining binding [%]
O=C(NCc1ncc(C(F)(F)F)cc1Cl)c1ccc2c(c1)C1(CCS(=O)(=O)CC1)[C@H](C1CC1)N2S(=O)(=O)c1ccc(F)cc1 | pknB (Mycobacterium tuberculosis, UniProt P9WI81) | 96
CS(=O)(=O)c1cc(C2(NC(=O)c3cncc4c3cnn4-c3ccc(F)cc3)CC2)ccn1 | CRK2 (Plasmodium falciparum, UniProt P61075) | 100

Some of these lines once more (single results of other studies):
Compound | target | remaining binding [%]
O=C(NCc1ncc(C(F)(F)F)cc1Cl)c1ccc2c(c1)C1(CCS(=O)(=O)CC1)[C@H](C1CC1)N2S(=O)(=O)c1ccc(F)cc1 | pknB (Mycobacterium tuberculosis, UniProt P9WI81) | 96
CS(=O)(=O)c1cc(C2(NC(=O)c3cncc4c3cnn4-c3ccc(F)cc3)CC2)ccn1 | CRK2 (Plasmodium falciparum, UniProt P61075) | 100
